Results pooled from the literature.
A part holds a random share of what one study measured. Substitutions count along the parent as printed.

Study 1 — method: RNA Bind-n-Seq; form: RNA; matrix: in vitro; tested at: 365 nM; relative to: no-protein control; direction: higher = stronger binding
Target: RNA binding protein fox-1 homolog 2, RRM domain, GST-SBP tag (RBFOX2, Homo sapiens, UniProt O43251-10, residues 100-194)
Notes: natural RNA segment, single round, ends assumed
Target sequence (chain): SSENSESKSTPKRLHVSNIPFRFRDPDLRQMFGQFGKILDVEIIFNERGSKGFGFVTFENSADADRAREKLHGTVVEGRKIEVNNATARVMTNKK
Oligonucleotide | RBNS enrichment (R)
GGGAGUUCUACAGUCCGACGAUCUCUGAAAAUACAAAUUAUCUUCCUUUAAGAAACCUACCAUUAAGCCAGGUGUGGAUUGACACACCUUUAGUCUCAGGACUGAGGAGGCGAGGCAAGCAGAUCCCUGAGUUUGGAAUUCUCGGGUGCCAA | 0.341
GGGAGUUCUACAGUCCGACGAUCCCCUCUUCUGAAACAGGAUGUGCACACAUGGGCCAUAGCCCUAAGGACUCCUGCCAGACCACACAGCCCACACCUGGCCCUGUUCACGGCUGUUCCACCCACCCCUCUUUUGGAAUUCUCGGGUGCCAA | 0.496
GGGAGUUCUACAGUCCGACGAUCCCUCCCUCUCAUCCCAAAGCAGGUAUCUUCUGGUUGUCACAGAGUUUCAUUGAGUCCAGCUGCAGCCACGUGGCCAUCUGGAGCUGGUGCUAUAGGUGACCAUCUGGUACUGGAAUUCUCGGGUGCCAA | 0.402
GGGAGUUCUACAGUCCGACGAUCUGAAUGGAAUAUAACAAUUCAGCUUAAUUCCCCAACCUUAUUCUGUGUGUAGACAUUGUAUUCCACAAUUUUGAAUGGCUGUGUUUUACCUCUAAAUAAAUGAAUUCAGAUGGAAUUCUCGGGUGCCAA | 0.475
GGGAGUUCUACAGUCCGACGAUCCUGGCAGCGCCUCCCGCCGCCUCGGGCCGCCUCCUCCAGACUCGAGAGGGCUGAGCCCCUCCUCUCCUCGUCCGGCCUGCAGCCCAGAACGGGCCUCCCCGGGGGUCCCCUGGAAUUCUCGGGUGCCAA | 0.305
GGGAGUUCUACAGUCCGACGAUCAUAUUAUUAUUAAUAUUAUUAUGAAUUUUUGUAAGAAACCGAGGCGAUGCCACGCUUUGCUGCUACCGCCCUGGGCUGGACUGGAGGUGGGCAUGCCACCCUCACACACAUGGAAUUCUCGGGUGCCAA | 0.391
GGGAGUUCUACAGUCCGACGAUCAAUGUGGACUAUUUUGAAAUUAUAACCAUUUUUGAUGCCCUGAAUCUUGAGGUGACUUAUUUUGCAUAGAGGAUAUGGAUAGACCAACAGUAAGGGUUGUGGGUUAUACCUGGAAUUCUCGGGUGCCAA | 1.08
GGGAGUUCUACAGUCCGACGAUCGCAAAAUAGAAUUAAGCAAUGGGUAAGCAAAAUAGGGUUGACAAGAUAUUUGGGGGUUAUUCGGGUUAUGGCCCAUUUAUUUCCCUCUUCCCCCUGAAUUGACCAGUAGCUGGAAUUCUCGGGUGCCAA | 2
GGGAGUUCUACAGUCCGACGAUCUGGAGAACUAUGAGGCCCUCCUGAACCUGGCCGAGCGGCUGGGAGAUGCCAAGCCCCGGGGUCUCACCAAAGCAGACAUAGAGCAGCUCCCGUCGUACCGCUUUAACCCGUGGAAUUCUCGGGUGCCAA | 0.2
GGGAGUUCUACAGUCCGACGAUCGCUGGCUCUGAAACAAUCCUUGCAGUUACUCCCCAGCUGUUCGUCUGGACAGCUCAUUCAAGUGGAUUUUUAACUAUUAGGGAUCACUGCGAAGUUUCGUUGGAUUUUAUUGGAAUUCUCGGGUGCCAA | 0.256
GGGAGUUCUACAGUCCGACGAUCUUUUGAAAUCUCUGAAUGCCUUGGUUCUCAGUAUUAUCAUUCUUUAUUGAAUUUAUUUCUUAUUAAAAUAUGUAGUUUUUAAGACUUUUUUUCUGACAGUAUUAUGUAAUUGGAAUUCUCGGGUGCCAA | 4.36
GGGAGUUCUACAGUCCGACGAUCCCGACCCAGGCCCCCAAAUCUGGGCUGUUGUGGAACACCCAUGACUUAAGCCUUUCUCCAAGUCUGGAUUCCAGAAAUGUUCCCCACAUCAAGGCUCUGACACCCCAGCCUGGAAUUCUCGGGUGCCAA | 0.713

Study 2 — method: DHFR PCA, deep sequencing; matrix: yeast; added: (+)-ABA 200 µM; relative to: wild-type fitted maximum; direction: higher = stronger binding
Target: ABI1, truncated, D143A, DHFR fusion (Arabidopsis thaliana)
Notes: methotrexate growth selection, single substitutions
Starting sequence: PYL1, truncated, DHFR fusion (Arabidopsis thaliana); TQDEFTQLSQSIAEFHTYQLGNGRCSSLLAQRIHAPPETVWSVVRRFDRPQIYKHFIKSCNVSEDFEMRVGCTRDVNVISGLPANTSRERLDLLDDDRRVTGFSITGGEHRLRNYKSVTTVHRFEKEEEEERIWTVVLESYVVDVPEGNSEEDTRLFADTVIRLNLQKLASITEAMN; partner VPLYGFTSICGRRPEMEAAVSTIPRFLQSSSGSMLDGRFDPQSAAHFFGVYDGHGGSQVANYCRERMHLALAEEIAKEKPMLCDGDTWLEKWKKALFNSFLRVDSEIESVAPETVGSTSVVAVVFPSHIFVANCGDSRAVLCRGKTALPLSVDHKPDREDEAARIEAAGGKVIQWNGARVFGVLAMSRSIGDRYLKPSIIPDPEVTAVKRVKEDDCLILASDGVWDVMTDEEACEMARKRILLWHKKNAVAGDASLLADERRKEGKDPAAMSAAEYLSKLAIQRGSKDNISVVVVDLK
Variant | relative binding score [%]
L164Q | 96.3
E67C | 98
Y141R | -6.1
R32F | 86.9
F103N | -11.1
T6M | 101
R74T | 11.2
P146H | 23.9
E127G | 113
V137R | -6.67
R88C | 103
N61D | 98.1
H122S | 65.2
V44K | 18.3
K116L | 12.1
D159R | 29.2
T135D | -4.57
R24L | 94.6
R99Y | 111

Study 3 — method: aptamer microarray, sandwich; form: DNA with 2'F-ANA; matrix: in vitro; tested at: 200 nM; added: Cy3 exosite-II aptamer, 400 nM; direction: higher = stronger binding; oligonucleotide: GGTTGGTGTGGTTGG
Target: Prothrombin, mature alpha-thrombin (F2, Homo sapiens, UniProt P00734)
Notes: whole 15-mer aptamer, many near background
Modification | mean fluorescence intensity
2'F-ANA at 6 9 12 15 | 677 a.u.
2'F-ANA at 1 3 4 5 6 7 9 11 13 | 58.7 a.u.
2'F-ANA at 1 3 6 9 10 12 15 | 95.7 a.u.
2'F-ANA at 3 6 8 10 12 13 14 15 | 381 a.u.
2'F-ANA at 3 6 8 9 12 14 | 602 a.u.
2'F-ANA at 2 3 4 5 10 11 14 15 | 46.8 a.u.
2'F-ANA at 1 2 3 4 5 6 9 10 13 | 49.5 a.u.
2'F-ANA at 6 7 8 9 10 12 14 | 121 a.u.
2'F-ANA at 2 3 4 10 13 14 15 | 180 a.u.
2'F-ANA at 1 2 3 4 6 7 8 9 10 11 12 13 14 | 158 a.u.
2'F-ANA at 2 3 6 7 9 10 11 13 | 282 a.u.
2'F-ANA at 5 9 11 13 | 60.3 a.u.
2'F-ANA at 2 3 6 7 9 11 12 13 15 | 725 a.u.
2'F-ANA at 1 4 5 6 9 10 11 14 15 | 50.2 a.u.
2'F-ANA at 2 3 6 10 11 13 14 | 234 a.u.
2'F-ANA at 2 4 5 8 9 11 13 14 15 | 50.1 a.u.
2'F-ANA at 1 2 4 5 7 9 12 14 15 | 62.1 a.u.
2'F-ANA at 1 3 6 7 9 10 12 14 | 66.7 a.u.
2'F-ANA at 3 4 5 6 7 8 9 11 12 13 | 111 a.u.
2'F-ANA at 2 4 6 7 10 11 12 13 14 15 | 58.8 a.u.
2'F-ANA at 2 3 4 5 8 9 10 11 | 50.9 a.u.
2'F-ANA at 4 5 7 10 13 14 | 45.1 a.u.
2'F-ANA at 3 5 9 10 12 14 | 61.5 a.u.
2'F-ANA at 1 6 7 8 9 13 15 | 142 a.u.
2'F-ANA at 2 3 4 6 7 8 10 11 12 14 | 152 a.u.

Study 4 — method: protein binding microarray; form: double-stranded DNA, one strand shown; matrix: in vitro; tested at: not given; relative to: not given; direction: higher = stronger binding
Target: Histone acetyltransferase KAT6A, both winged helices, GST fusion (KAT6A, Homo sapiens, UniProt Q92794, residues 1-181)
Notes: 8-mer, flanks averaged, mean of 2 arrays, mostly near background
Construct (chain): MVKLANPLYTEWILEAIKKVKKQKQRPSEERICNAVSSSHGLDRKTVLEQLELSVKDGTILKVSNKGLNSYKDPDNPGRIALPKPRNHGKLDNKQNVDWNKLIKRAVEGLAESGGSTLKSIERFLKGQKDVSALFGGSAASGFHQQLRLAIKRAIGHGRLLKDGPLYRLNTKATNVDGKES
Oligonucleotide | E-score
AAGGAGCG | 0.243
AAGAGAAA | -0.0171
ACAGCCGG | 0.23
AAATGGTG | -0.105
CCGGCCCA | -0.0457
ACAAGCGG | 0.162
GATCAGGA | -0.218
AAAGACGC | 0.157
GACTTGAA | -0.168
GAATCCTA | -0.135
CACCCTGC | -0.115
ATGGCTGA | -0.197
CACTCCGC | 0.132
AGGTGCTA | -0.0927
ATAGTGTG | -0.098
CTCTCTAC | -0.152
CGCAGATC | 0.126
ACTGACCG | 0.22

Study 5 — method: universal PBM; form: double-stranded DNA, one strand shown; matrix: in vitro; tested at: 600 nM; direction: higher = stronger binding
Target: Sal-like protein 4, full length isoform A (SALL4, Homo sapiens, UniProt Q9UJQ4, residues 1-1053)
Sequence of UniProt Q9UJQ4 (whole entry, looked up): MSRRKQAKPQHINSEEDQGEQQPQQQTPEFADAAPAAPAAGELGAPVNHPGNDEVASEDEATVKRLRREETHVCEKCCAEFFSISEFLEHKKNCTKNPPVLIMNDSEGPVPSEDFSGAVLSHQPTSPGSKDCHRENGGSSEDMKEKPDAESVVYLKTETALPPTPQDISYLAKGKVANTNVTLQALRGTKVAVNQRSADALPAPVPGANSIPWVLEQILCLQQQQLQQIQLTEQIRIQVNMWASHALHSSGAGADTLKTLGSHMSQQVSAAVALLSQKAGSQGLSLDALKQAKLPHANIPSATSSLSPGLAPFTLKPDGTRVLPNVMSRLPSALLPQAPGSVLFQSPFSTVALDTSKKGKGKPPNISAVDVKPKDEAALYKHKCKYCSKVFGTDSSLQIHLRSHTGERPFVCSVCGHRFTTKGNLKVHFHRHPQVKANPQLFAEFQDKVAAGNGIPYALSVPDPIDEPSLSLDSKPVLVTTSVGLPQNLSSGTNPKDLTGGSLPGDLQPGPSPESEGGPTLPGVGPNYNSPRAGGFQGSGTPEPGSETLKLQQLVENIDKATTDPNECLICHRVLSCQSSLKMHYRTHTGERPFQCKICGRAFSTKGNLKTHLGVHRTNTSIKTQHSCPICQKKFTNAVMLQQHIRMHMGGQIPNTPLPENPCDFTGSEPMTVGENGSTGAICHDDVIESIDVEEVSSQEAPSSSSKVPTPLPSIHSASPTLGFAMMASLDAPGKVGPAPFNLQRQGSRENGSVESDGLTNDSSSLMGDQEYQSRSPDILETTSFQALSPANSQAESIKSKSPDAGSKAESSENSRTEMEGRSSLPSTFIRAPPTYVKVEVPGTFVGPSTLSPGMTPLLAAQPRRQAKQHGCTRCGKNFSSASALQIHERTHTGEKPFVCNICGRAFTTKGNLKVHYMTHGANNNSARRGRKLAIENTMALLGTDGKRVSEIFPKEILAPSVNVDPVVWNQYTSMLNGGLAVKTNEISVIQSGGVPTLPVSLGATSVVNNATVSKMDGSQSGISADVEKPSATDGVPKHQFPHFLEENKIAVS
Notes: 8-mer, flanks averaged, mean of replicates
Oligonucleotide | E-score
AGGTTGAG | -0.0885
AAATAGCC | 0.0501
AATCGATC | 0.0253
TAACTGCA | 0.169
GAATGGAC | -0.0886
GAGGGATA | -0.0476
TCTAAAGA | 0.122
ACCCGGGC | -0.376
GGTGGGAC | -0.223
AGGCCACT | -0.182
CAATCGTC | -0.0444
CTTATAAA | 0.28
ATCCGAAC | -0.104
AGGCCCCC | -0.446
ACCGGTGG | -0.368
AAATCGAA | 0.224
ACGCGTTA | -0.00377

Repeated from above (study 3):
Modification | mean fluorescence intensity
2'F-ANA at 6 9 12 15 | 677 a.u.
2'F-ANA at 1 4 5 6 9 10 11 14 15 | 50.2 a.u.
2'F-ANA at 2 4 5 8 9 11 13 14 15 | 50.1 a.u.
2'F-ANA at 3 6 8 9 12 14 | 602 a.u.
2'F-ANA at 2 3 6 10 11 13 14 | 234 a.u.
2'F-ANA at 2 3 4 5 8 9 10 11 | 50.9 a.u.
2'F-ANA at 1 6 7 8 9 13 15 | 142 a.u.
2'F-ANA at 4 5 7 10 13 14 | 45.1 a.u.
